Measurements gathered from unrelated publications.
Each line is one published result; not all experiments were run side by side. ± gives the spread as reported.
CDC48A: CDC48A 1-463 (Arabidopsis thaliana, UniProt P54609)
Sequence of UniProt P54609 (whole entry, looked up): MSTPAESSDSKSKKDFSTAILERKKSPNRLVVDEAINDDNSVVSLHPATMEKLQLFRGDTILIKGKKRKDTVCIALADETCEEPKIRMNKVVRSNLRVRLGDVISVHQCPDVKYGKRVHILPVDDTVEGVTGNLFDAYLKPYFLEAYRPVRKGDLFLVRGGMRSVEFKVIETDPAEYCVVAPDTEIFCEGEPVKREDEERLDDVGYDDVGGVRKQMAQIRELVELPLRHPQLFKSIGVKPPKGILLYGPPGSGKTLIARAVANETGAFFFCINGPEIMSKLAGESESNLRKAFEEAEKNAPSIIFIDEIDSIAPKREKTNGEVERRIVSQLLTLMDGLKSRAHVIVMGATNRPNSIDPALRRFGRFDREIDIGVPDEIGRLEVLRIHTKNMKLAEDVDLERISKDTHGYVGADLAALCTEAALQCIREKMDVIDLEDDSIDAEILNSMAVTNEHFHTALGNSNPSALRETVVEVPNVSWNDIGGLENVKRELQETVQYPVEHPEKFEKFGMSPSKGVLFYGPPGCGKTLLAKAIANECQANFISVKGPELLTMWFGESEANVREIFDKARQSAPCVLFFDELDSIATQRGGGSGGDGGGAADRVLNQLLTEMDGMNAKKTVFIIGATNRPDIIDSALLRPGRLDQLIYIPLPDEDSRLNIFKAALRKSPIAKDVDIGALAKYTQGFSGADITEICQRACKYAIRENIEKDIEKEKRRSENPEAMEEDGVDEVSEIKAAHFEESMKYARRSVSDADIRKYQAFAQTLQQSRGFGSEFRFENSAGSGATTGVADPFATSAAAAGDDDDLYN
NFKBIA: NFKBIA 67-206 (Homo sapiens, UniProt P25963)
Sequence of UniProt P25963 (whole entry, looked up): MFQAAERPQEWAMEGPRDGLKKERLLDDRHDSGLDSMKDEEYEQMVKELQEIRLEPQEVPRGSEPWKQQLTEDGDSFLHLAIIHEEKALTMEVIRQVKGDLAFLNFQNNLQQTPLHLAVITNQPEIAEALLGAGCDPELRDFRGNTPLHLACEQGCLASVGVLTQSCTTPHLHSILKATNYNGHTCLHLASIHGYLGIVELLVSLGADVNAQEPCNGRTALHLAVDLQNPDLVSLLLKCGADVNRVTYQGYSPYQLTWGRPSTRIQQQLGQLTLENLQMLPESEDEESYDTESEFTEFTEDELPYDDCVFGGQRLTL
B1: EPYC (Homo sapiens, UniProt Q99645); sequence looked up; chain APTLESINYDSETYDATLEDLDNLYNYENIPVDKVEIEIATVMPSGNRELLTPPPQPEKAQEEEEEEESTPRLIDGSSPQEPEFTGVLGPHTNEDFPTCLLCTCISTTVYCDDHELDAIPPLPKNTAYFYSRFNRIKKINKNDFASLSDLKRIDLTSNLISEIDEDAFRKLPQLRELVLRDNKIRQLPELPTTLTFIDISNNRLGRKGIKQEAFKDMYDLHHLYLTDNNLDHIPLPLPENLRALHLQNNNILEMHEDTFCNVKNLTYIRKALEDIRLDGNPINLSKTPQAYMCLPRLPVGSLV
B2: Atg23 full-length, dimer (yeast, UniProt Q06671); sequence looked up; chain MELNQVLEKKEQILQYLGTLVGLHEKALSDVNSASQVTSIRKDITICLNDLCRINDLLVSHDGLLKREIGSLLRDKQELLELNEREQLLWKERKSWHIKQETDAAPADYVIDKDAIITISSHHRTSLNKYIESVGAENTILSNTDDSDAMIEEVQNAESSADQMIRNYKLLQLSHKQAKSEIIRLETLLRDFKKDNKFIEEELKRQSGRIRSEMGNIDFHLSKIEESKHQLMKRIGFESPLTQEKSLSEKIFNLRLSSADEDYNERQTINMKNFVHMKDLIELKIEDLQEQLMRNKNESSTVLTQRELWLDCQKKVGDLESKLITKLRSSSNSKIPPNEMSEMINSTIQYLNNLLDSSDEKLTTTLISNERDVLSKACEELHSESTTAQDGSSALPSKPIDIHKSHKGSNASSNLKQPSTPSFLVASKSPPKIGISESVVNANKNDAISKKVE
B3: PUX7 (Arabidopsis thaliana, UniProt Q94JZ8); chain MEGMLSSGDQQRLVSSFLEIAVGQTAETARQFLQATSWKLEEAIQLFYIGNEGGMLQSGTHTQPASNDDAAAQSWGAATGTGNEMILPNDVDEVRAPLPVVRETLYGESMYYGAMRVGNSQPEPNSLIAFRNFSEEPKSPGIWEPDEGDSSASASASASASESASAPRDSLASLYRPPFHLMFQGSFEQAKTTSSSQDKWLLVNLQSTTEFSSHMLNRDTWANDAVSQTIKANFIFWQVYDDTTEGRKVCTYYKLESIPVVLVIDPTTGQRMRMWTGMVDPENLLEDLVPFMDGGPREHFASLSKKRPRGSFSLTPHSKPKEDVAKDEEEEELQRALAASLEDNNMKESSDDQSTIIPEEVAVEAVTSAVLPTFPPLPEEPKGGDRSLQCRVGIRLPNGQRLQRNFLKTDTIQLLWSFCYSQLEESERKKPLKLTQAIPGESKTLEYESNLTLEQSGVANSMISATWE
B4: UBASH3A 276-340 (Homo sapiens, UniProt P57075); chain VHYQTLRALFQYKPQNVDELTLSPGDYIFVDPTQQDEASEGWVIGISQRTGCRGFLPENYTDRAS
B5: PUX6 269-435 (Arabidopsis thaliana, UniProt F4IXN6); chain VTYTVTIWRNGFTVDDDPFKSLDDPENAAFLEYMPEDNKFGVPTTTRSTSCSSQTHQELQTLAGSESTSTEPPLTTTQPPSMSSLVVDPAAPTTSIQLILADSTRIVTQFNTHHTIRDIRCFIDTSRPDGSKDYQLLIMGSPPTPLSDFDQTIEKAGIANSVLVQKF
B6: HCK 78-138 (Homo sapiens, UniProt P08631); chain SEDIIVVALYDYEAIHHEDLSFQKGDQMVVLEESGEWWKARSLATRKEGYIPSNYVARVDS
B7: PUX7 322-468 (Arabidopsis thaliana, UniProt Q94JZ8); chain EDVAKDEEEEELQRALAASLEDNNMKESSDDQSTIIPEEVAVEAVTSAVLPTFPPLPEEPKGGDRSLQCRVGIRLPNGQRLQRNFLKTDTIQLLWSFCYSQLEESERKKPLKLTQAIPGESKTLEYESNLTLEQSGVANSMISATWE
B8: DUSP1 3-148 (Homo sapiens, UniProt P28562); sequence looked up; chain MEVGTLDAGGLRALLGERAAQCLLLDCRSFFAFNAGHIAGSVNVRFSTIVRRRAKGAMGLEHIVPNAELRGRLLAGAYHAVVLLDERSAALDGAKRDGTLALAAGALCREARAAQVFFLKGGYEAFSASCPELCSKQSTPMGLSLP
B9: PUX2 1-149 (Arabidopsis thaliana, UniProt Q9ZU93); chain MDDVKDKLKGFMKKVNLSSSSGKFKGQGRVLGSSSSSSAPPVNPIQNRFNSSQAPNPTPRPKPNPNPLPEKPLSSSDQKISGSTRNPDHDPVRAPQDGFDPYGAFITSSNRSQNGYSLSMFECPICKNPFTSEEEVSVHVESCLGDTNG
B10: TNFRSF4 29-170 D124A (Homo sapiens, UniProt P43489); sequence looked up; chain LHCVGDTYPSNDRCCHECRPGNGMVSRCSRSQNTVCRPCGPGFYNDVVSSKPCKPCTWCNLRSGSERKQLCTATQDTVCRCRAGTQPLDSYKPGVACAPCPPGHFSPGDNQACKPWTNCTLAGKHTLQPASNSSDAICEDRD
Sequence of UniProt P27986 (whole entry, unmodified, looked up): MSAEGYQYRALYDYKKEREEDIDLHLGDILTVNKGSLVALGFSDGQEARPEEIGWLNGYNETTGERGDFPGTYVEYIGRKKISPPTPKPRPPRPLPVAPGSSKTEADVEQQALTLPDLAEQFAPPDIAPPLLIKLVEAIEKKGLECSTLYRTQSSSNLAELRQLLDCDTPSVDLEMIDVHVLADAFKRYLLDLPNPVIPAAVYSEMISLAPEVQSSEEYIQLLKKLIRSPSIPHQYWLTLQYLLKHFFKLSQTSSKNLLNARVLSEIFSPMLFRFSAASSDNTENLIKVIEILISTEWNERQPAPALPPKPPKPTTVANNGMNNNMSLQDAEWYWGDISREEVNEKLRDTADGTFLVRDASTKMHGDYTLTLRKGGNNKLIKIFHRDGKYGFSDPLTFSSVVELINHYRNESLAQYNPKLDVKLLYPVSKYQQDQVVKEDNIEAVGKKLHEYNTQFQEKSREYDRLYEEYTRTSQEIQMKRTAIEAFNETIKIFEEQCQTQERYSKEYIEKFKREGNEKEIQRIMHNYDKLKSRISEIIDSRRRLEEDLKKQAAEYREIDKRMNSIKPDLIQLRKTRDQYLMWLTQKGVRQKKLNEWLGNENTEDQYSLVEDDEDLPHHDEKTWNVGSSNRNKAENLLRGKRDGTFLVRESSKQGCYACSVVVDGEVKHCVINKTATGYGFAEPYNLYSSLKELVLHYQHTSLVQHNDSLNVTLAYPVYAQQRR
Sequence of UniProt Q12142 (whole entry, unmodified, looked up): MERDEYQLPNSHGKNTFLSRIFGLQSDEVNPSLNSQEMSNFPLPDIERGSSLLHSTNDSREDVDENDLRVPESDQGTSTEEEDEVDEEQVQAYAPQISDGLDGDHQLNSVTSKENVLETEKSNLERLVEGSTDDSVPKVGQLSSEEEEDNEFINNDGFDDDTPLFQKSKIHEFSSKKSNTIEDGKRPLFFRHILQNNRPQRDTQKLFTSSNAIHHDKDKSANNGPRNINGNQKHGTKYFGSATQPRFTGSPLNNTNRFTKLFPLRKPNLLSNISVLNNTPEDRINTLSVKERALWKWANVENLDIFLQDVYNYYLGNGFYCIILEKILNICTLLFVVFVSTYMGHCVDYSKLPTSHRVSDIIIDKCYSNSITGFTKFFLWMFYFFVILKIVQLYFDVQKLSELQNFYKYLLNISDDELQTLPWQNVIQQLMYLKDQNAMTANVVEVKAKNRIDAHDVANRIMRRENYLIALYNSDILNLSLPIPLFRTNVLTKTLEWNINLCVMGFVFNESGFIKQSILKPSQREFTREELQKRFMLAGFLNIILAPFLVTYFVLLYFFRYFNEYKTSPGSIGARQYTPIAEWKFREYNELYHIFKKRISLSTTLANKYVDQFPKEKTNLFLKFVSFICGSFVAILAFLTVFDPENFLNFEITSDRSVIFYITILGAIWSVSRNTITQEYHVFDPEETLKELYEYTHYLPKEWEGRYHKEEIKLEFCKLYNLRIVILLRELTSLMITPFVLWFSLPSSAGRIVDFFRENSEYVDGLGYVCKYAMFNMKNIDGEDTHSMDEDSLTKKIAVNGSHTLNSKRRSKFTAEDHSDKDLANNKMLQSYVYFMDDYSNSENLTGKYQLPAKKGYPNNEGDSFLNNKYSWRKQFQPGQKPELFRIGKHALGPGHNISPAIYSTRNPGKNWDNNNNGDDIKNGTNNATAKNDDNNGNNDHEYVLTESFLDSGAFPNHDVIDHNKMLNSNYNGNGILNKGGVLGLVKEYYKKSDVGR
Sequence of UniProt P23510 (whole entry, unmodified, looked up): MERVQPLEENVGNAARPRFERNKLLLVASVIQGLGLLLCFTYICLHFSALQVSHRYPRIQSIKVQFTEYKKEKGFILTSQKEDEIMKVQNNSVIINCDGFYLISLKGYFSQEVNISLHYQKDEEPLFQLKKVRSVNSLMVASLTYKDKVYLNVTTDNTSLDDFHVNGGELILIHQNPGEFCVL
Sequence of UniProt P17948 (whole entry, unmodified, looked up): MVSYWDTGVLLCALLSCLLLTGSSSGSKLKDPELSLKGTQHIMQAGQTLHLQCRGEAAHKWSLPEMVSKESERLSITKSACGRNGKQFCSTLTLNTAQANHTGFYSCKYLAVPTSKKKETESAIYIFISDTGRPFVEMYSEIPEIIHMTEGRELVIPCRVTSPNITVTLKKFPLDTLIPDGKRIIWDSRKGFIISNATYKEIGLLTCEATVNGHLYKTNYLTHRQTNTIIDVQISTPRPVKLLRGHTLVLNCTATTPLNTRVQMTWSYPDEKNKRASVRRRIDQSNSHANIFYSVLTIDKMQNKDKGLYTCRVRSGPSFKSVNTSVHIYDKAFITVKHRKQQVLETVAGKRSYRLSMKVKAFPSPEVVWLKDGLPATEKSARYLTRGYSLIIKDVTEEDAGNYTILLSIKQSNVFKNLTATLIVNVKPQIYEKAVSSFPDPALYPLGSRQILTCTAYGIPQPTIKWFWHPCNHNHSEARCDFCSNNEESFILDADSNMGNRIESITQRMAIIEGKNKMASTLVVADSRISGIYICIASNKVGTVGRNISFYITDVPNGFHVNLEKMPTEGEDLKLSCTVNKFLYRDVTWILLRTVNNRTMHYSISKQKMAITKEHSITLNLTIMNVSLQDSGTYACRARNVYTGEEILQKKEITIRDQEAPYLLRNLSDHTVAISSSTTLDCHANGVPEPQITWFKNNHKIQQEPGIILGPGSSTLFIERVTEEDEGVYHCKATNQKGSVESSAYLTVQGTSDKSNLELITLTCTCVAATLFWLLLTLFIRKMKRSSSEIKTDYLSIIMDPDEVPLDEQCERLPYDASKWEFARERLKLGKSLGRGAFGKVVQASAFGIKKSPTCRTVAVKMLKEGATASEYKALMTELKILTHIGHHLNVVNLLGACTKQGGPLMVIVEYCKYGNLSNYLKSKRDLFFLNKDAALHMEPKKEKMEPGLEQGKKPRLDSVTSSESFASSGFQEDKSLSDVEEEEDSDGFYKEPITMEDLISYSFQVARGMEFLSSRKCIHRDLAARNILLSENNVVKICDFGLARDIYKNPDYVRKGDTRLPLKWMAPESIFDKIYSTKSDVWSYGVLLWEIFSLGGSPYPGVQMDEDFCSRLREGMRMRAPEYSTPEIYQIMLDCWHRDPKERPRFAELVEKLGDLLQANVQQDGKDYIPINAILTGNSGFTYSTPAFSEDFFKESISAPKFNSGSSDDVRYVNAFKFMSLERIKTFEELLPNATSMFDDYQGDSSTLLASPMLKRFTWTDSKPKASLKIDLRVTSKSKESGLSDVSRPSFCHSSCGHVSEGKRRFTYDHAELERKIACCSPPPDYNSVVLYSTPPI
Sequence of UniProt Q16539 (whole entry, unmodified, looked up): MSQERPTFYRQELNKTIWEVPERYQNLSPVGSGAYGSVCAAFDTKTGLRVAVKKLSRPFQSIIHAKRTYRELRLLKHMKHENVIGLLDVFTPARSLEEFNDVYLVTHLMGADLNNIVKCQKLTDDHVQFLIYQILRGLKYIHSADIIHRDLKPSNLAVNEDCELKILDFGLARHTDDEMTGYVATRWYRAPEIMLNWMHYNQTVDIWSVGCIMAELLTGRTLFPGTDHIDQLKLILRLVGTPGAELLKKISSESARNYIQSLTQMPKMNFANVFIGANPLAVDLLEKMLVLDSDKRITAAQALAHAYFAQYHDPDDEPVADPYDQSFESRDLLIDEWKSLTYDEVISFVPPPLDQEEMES

The ΔH of `B1 (EPYC)` is reported as -1360 ± 120 kcal/mol (FLT1 27-758 (Homo sapiens, UniProt P17948); ITC).
`PUX7 fragment (Arabidopsis thaliana)` has a ΔH of 1.29 ± 0.0956 kcal/mol (CDC48A; ITC).
For `B2 (Atg23 full-length, dimer)`, the ΔH was -1.77 kcal/mol (ATG9 1-255 (Saccharomyces cerevisiae, UniProt Q12142); ITC; pH 8, 20 °C, NaCl 150 mM, independent binding model, with: TCEP 0.2 mM).
`LPDTDDRHRIEEKRKRTYETFKSAMKKSPFNGP (Rela 289-321 I312A (Mus musculus, UniProt Q04207); sequence looked up)` has a ΔH of -7.3 ± 0.2 kcal/mol (NFKBIA; ITC; peptide).
`B3 (PUX7)` has a ΔH of 3.68 ± 0.0717 kcal/mol (CDC48A; ITC).
The ΔH of `B4 (UBASH3A 276-340)` is reported as -1.98 ± 0.167 kcal/mol (PIK3R1 80-724 (Homo sapiens, UniProt P27986); ITC).
With `B5 (PUX6 269-435)` the ΔH was 1.91 ± 0.0717 kcal/mol (CDC48A; ITC).
`B6 (HCK 78-138)` gave a ΔH of -8.82 ± 0.239 kcal/mol (PIK3R1 80-333 (Homo sapiens, UniProt P27986); ITC).
`LPDTDDRHRIEEKRKRTYETFKSIMKKSPFNGP (Rela 289-321 (Mus musculus, UniProt Q04207); sequence looked up)` has a ΔH of -3.7 ± 0.03 kcal/mol (NFKBIA; ITC; peptide).
The ΔH of `B7 (PUX7 322-468)` is reported as 2.08 ± 0.0717 kcal/mol (CDC48A; ITC).
For `B8 (DUSP1 3-148)`, the ΔH was -2.2 ± 0.2 kcal/mol (MAPK14 2-349 (Homo sapiens, UniProt Q16539); ITC).
With `B9 (PUX2 1-149)` the ΔH was -3.61 ± 1.2 kcal/mol (CDC48A; ITC).
With `BRCA1 coiled-coil domain (Homo sapiens)` the ΔH was -1.5 ± 0.06 kcal/mol (PALB2 1-56 (Homo sapiens, UniProt Q86YC2); ITC).
The binding intensity of `PKRSFIESNV` is reported as 0.0568 (human MAGI1-3/6 PDZ construct (MBP fusion); automated holdup; peptide, crude extract; concentration not given, corrected by standard peak, unit not given; baseline: biotin control resin, higher = stronger binding).
`LPDTDDRHRIEEKRKRTYETFKSIMKKSPANGP (Rela 289-321 F318A (Mus musculus, UniProt Q04207); sequence looked up)` gave a ΔH of -2.5 ± 0.01 kcal/mol (NFKBIA; ITC; peptide).
The binding intensity of `GSGAGIATEV` is reported as -0.00355 (human MAGI1-3/6 PDZ construct (MBP fusion); automated holdup; peptide, crude extract; concentration not given, corrected by standard peak, unit not given; baseline: biotin control resin, higher = stronger binding).
For `B10 (TNFRSF4 29-170 D124A)`, the ΔH was -11.7 kcal/mol (TNFSF4 51-183 (Homo sapiens, UniProt P23510); SPR; van't Hoff).
